Assay results gathered from unrelated publications.
Each line is one published result; not all experiments were run side by side. “And” joins repeats or separate records; there may be more than shown. Converted amounts (≈) assume the structure as drawn.
Organism: Escherichia coli

SMILES	test	system	conditions	how to read	quantity	value
CCCCc1c([N+](=O)[O-])oc2ccc3ccccc3c12	REMA	–	–	–	MIC90	> 32 µg/mL
C[C@H]1[C@H](NC(=O)/C(=N\OC(C)(C)C(=O)O)c2csc(N)n2)C(=O)N1S(=O)(=O)O	–	mcr-1 producing, ICR mice systemic infection	up to 100 mg/kg	–	survival rate	100%
CC[C@H](C)[C@H](NC(=O)[C@H](Cc1c[nH]c2ccccc12)NC(=O)[C@@H](NC(=O)[C@H](Cc1c[nH]c2ccccc12)NC(=O)[C@@H]1CCCN1C(=O)[C@@H](NC(=O)[C@H](C)N)[C@@H](C)CC)[C@@H](C)CC)C(=O)N[C@@H](Cc1c[nH]c2ccccc12)C(=O)N[C@@H](CCCNC(=N)N)C(=O)N[C@@H](CC(C)C)C(=O)N[C@@H](CC(C)C)C(=O)N[C@@H](CCCNC(=N)N)C(=O)N[C@@H](CCCCN)C(=O)NCC(N)=O	–	D31	18 h, 37 °C	–	MBC	7.5 µM
COc1ccc2c(ccc3oc([N+](=O)[O-])cc32)c1	REMA	–	–	–	MIC90	1.5 µg/mL (≈ 6.17 µM)
CC(C)[C@@H]1NC(=O)CNC(=O)[C@H](CC(N)=O)NC(=O)[C@H](CCCNC(=N)N)NC(=O)[C@H](Cc2ccc(O)cc2)NC(=O)[C@H](C(C)C)NC(=O)[C@@H](NC(=O)[C@@H](NC(=O)[C@H](CC(N)=O)NC(=O)[C@H](Cc2c[nH]c3ccccc23)NC(=O)[C@H](C)NC(=O)[C@H](Cc2ccccc2)NC(=O)CN)C(C)C)CSSC[C@@H](C(=O)N[C@@H](Cc2c[nH]cn2)C(=O)N[C@@H](CCCNC(=N)N)C(=O)N[C@@H](CCCNC(=N)N)C(=O)N[C@@H](C)C(=O)N[C@@H](CC(N)=O)C(N)=O)NC(=O)[C@H](C(C)C)NC(=O)[C@H](CCCNC(=N)N)NC1=O	bactericidal activity	ATCC 25922	24 h	–	EC50	1360 nM
C[C@@H](O)[C@H]1C(=O)N2C(C(=O)O)=C(S[C@@H]3CN[C@H](C(=O)N(C)C)C3)[C@H](C)[C@H]12	–	DH5a clone with KPC-100	–	relative to: empty vector strain	MIC fold increase	> 4 fold
O=C(O)c1cccc(C(=O)O)n1	–	ATCC 25922, no carbapenemase	32 µg/mL, added: meropenem	relative to: meropenem alone	fold MIC reduction	≥ 1
CC(=O)c1ccc(C(=O)O)cc1	–	MG1655 RecA-GFP	100 µM, 4 h	–	SOS response induction	14%
CC[C@@H](C)[C@@H](N)C(=O)N[C@@H](C(=O)N[C@H](Cc1ccc(O)cc1)C(=O)N[C@@H](C(=O)N[C@H](CCN)C(=O)N[C@H](CC(C)C)C(=O)N[C@H](CO)C(=O)N[C@H](CCN)C(=O)N[C@@H](C(=O)N[C@H](CCN)C(=O)N[C@H](Cc1c[nH]cn1)C(=O)N[C@H](CCN)C(=O)N[C@H](C)C(=O)N[C@H](CCN)C(=O)N[C@H](CCN)C(N)=O)[C@H](C)CC)[C@H](C)CC)[C@H](C)CC	–	ATCC 25922, Mueller-Hinton broth	20 h, 37 °C	–	MBC	4 µg/mL
C[C@@H](O)[C@H]1C(=O)N2C(C(=O)[O-])=C(SC3Cn4cnc[n+]4C3)[C@H](C)[C@H]12 (some centres unmarked)	checkerboard	carbapenem-resistant	concentration not given, added: anionic gold nanoparticle 8 µg/mL	relative to: MIC alone over combination	MIC fold reduction	4 fold
CC[C@H](C)[C@H](NC(=O)[C@H](C)N)C(=O)N[C@@H](CO)C(=O)NCC(=O)N[C@@H](CO)C(=O)N[C@@H](CC(C)C)C(=O)N[C@H](C(=O)N[C@H](C(=O)N[C@@H](CC(C)C)C(=O)N[C@@H](Cc1ccccc1)C(=O)NCC(=O)N[C@@H](Cc1ccc(O)cc1)C(=O)N[C@@H](CCCNC(=N)N)C(=O)N[C@@H](CCCCN)C(=O)N[C@@H](CCCNC(=N)N)C(=O)N[C@@H](CCCCN)C(=O)N[C@@H](CCCNC(=N)N)C(=O)N[C@@H](CCCCN)C(N)=O)[C@@H](C)O)C(C)C	checkerboard	–	unit not given, added: azithromycin	lower means synergy	FICI	0.5
O=C(O)c1cn(C2CC2)c2cc(N3CCNCC3)c(F)cc2c1=O	–	ATCC 25922, BALB/c mice, Escherichia coli infected	intravenous, 10 mg/kg, 7 days, dosed 1 h after infection	–	survival	100%
CC[C@H](C)[C@H](NC(=O)[C@H](C)NC(=O)[C@H](CCCCN)NC(=O)[C@H](CCCNC(=N)N)NC(=O)[C@H](CCCCN)NC(=O)[C@H](CCCNC(=N)N)NC(=O)[C@H](CCCCN)NC(=O)[C@@H](N)CCCNC(=N)N)C(=O)N[C@@H](CO)C(=O)NCC(=O)N[C@@H](CO)C(=O)N[C@@H](CC(C)C)C(=O)N[C@H](C(=O)N[C@H](C(=O)N[C@@H](CC(C)C)C(=O)N[C@@H](Cc1ccccc1)C(=O)NCC(=O)N[C@@H](Cc1ccc(O)cc1)C(N)=O)[C@@H](C)O)C(C)C	checkerboard	–	unit not given, added: rifampicin	lower means synergy	FICI	0.28
Cc1cc(-c2cn[nH]c2-c2cccc(OCc3cccc(C#N)c3)c2)cc(C)n1	–	multidrug-resistant clinical isolates	–	–	MIC90	4 µg/mL (≈ 10.5 µM)
CCn1cc(C(=O)O)c(=O)c2cc(F)c(N3CCNCC3)cc21	–	ATCC 25922	30 generations	relative to: generation 1 MIC	MIC fold increase	128 fold
C[C@@H](O)[C@H]1C(=O)N2C(C(=O)O)=C(S[C@@H]3CN[C@H](C(=O)N(C)C)C3)[C@H](C)[C@H]12	–	NDM-1 positive	10 µg/disk, compound alone	–	inhibition zone diameter	11.2 mm
CC[C@H](C)[C@H](NC(=O)CNC(=O)[C@@H](NC(=O)[C@H](Cc1ccccc1)NC(=O)[C@H](Cc1ccc(O)cc1)NC(=O)[C@@H]1CCC(=O)NCC(=O)NCC(=O)N[C@@H](C)C(=O)NCC(=O)N[C@@H](Cc2c[nH]cn2)C(=O)N[C@@H](C(C)C)C(=O)N2CCC[C@H]2C(=O)N1)C(C)C)C(=O)NCC(=O)N[C@H](C(=O)N1CCC[C@H]1C(=O)N[C@H](C(=O)N[C@@H](CO)C(=O)N[C@@H](Cc1ccccc1)C(=O)N[C@@H](Cc1ccc(O)cc1)C(=O)NCC(=O)O)[C@@H](C)CC)[C@@H](C)O	–	ΔtolC, plasmid wild-type rpoC	5 µM, 16 h, 37 °C	relative to: untreated	growth inhibition	100%
CCCCCC(=O)N[C@@H](CCCNC(=N)N)C(=O)N[C@@H](CCCNC(=N)N)C(=O)N[C@@H](CCCNC(=N)N)C(=O)N[C@@H](CCCNC(=N)N)C(=O)N[C@H](C(=O)N[C@@H](CC(C)C)C(=O)N[C@H](C(=O)N[C@@H](CCCCN)C(=O)N[C@@H](CCCCN)C(=O)N[C@H](C(=O)N[C@@H](CC(C)C)C(=O)N[C@@H](CCCCN)C(=O)N[C@@H](CC(C)C)C(=O)N[C@@H](CCCCN)C(=O)N[C@@H](CO)C(=O)N[C@@H](CO)C(=O)N[C@@H](C)C(=O)N[C@@H](Cc1ccc(O)cc1)C(N)=O)C(C)C)[C@@H](C)CC)[C@@H](C)CC	checkerboard	–	unit not given, added: rifampicin	lower means synergy	FICI	0.16
C[C@@H](O)[C@H]1C(=O)N2C(C(=O)O)=C(S[C@@H]3CN[C@H](C(=O)N(C)C)C3)[C@H](C)[C@H]12	–	neutropenic rat, lung infection	intravenous, 15 mg/kg every 12 h, first study	–	log10 CFU difference	-0.14 and -0.19 and -0.47
CC[C@H](C)[C@H](NC(=O)[C@H](CCCNC(=N)N)NC(=O)[C@H](CCCNC(=N)N)NC(=O)[C@H](CCCNC(=N)N)NC(=O)[C@H](CCCNC(=N)N)NC(=O)[C@H](CCCNC(=N)N)NC(=O)[C@@H](N)CCCNC(=N)N)C(=O)N[C@@H](CO)C(=O)N[C@@H](Cc1ccccc1)C(=O)N[C@@H](CC(C)C)C(=O)NCC(=O)N[C@@H](CO)C(=O)N[C@@H](CCCCN)C(=O)N[C@@H](CCCCN)C(=O)N[C@@H](CCCCN)C(=O)N[C@@H](CCCCN)C(=O)N[C@@H](CCCCN)C(=O)N[C@@H](CC(C)C)C(=O)N[C@@H](CC(C)C)C(=O)N[C@@H](CCCCN)C(=O)N[C@@H](CCCNC(=N)N)C(N)=O	checkerboard	–	unit not given, added: rifampicin	lower means synergy	FICI	0.13
CC(C)[C@@H]1NC(=O)[C@H](C)OC(=O)[C@@H](C(C)C)NC(=O)[C@@H](C(C)C)OC(=O)[C@H](C(C)C)NC(=O)[C@H](C)OC(=O)[C@@H](C(C)C)NC(=O)[C@@H](C(C)C)OC(=O)[C@H](C(C)C)NC(=O)[C@H](C)OC(=O)[C@@H](C(C)C)NC(=O)[C@@H](C(C)C)OC1=O	checkerboard	tetracycline-resistant	20 µM, added: tetracycline	–	FIC index	1
Nc1c([N+](=O)[O-])oc2ccc3ccccc3c12	REMA	–	–	–	MIC90	> 32 µg/mL
CC(C)C[C@H](NC(=O)[C@H](CCN)NC(=O)[C@H](CCN)NC(=O)[C@@H](Cc1ccccc1)NC(=O)[C@H](CC(C)C)NC(=O)[C@H](CCN)NC(=O)[C@H](CCN)NC(=O)[C@@H](CCN)NC(=O)[C@@H](N)CSCCOC(=O)C(C)(C)C)C(N)=O	–	ATCC 10546	24 h, 37 °C	–	MBC	16 µM
N=C(N)c1ccc(OCCCCCOc2ccc(C(=N)N)cc2)cc1	checkerboard	BW25113 mcr-1 plasmid	unit not given, added: rifampicin	lower = stronger synergy	FICI	≤ 0.25
COc1ccc2ccc3oc([N+](=O)[O-])cc3c2c1Br	REMA	–	–	–	MIC90	0.1 µg/mL (≈ 0.31 µM)
CC[C@H](C)[C@H](NC(=O)[C@H](CC(N)=O)NC(=O)[C@H](Cc1ccccc1)NC(=O)[C@H](CCCNC(=N)N)NC(=O)[C@H](CCCNC(=N)N)NC(=O)[C@@H](N)CCCCN)C(=O)N[C@@H](CCCCN)C(=O)N[C@@H](CC(C)C)C(=O)N[C@@H](Cc1c[nH]c2ccccc12)C(=O)N[C@@H](CCCCN)C(=O)N[C@H](C(=O)N[C@@H](Cc1ccccc1)C(=O)O)[C@@H](C)O	–	K12 MG1655	–	–	MBC	32 µg/mL

Some of these lines once more:
SMILES	test	system	conditions	how to read	quantity	value
CCCCCC(=O)N[C@@H](CCCNC(=N)N)C(=O)N[C@@H](CCCNC(=N)N)C(=O)N[C@@H](CCCNC(=N)N)C(=O)N[C@@H](CCCNC(=N)N)C(=O)N[C@H](C(=O)N[C@@H](CC(C)C)C(=O)N[C@H](C(=O)N[C@@H](CCCCN)C(=O)N[C@@H](CCCCN)C(=O)N[C@H](C(=O)N[C@@H](CC(C)C)C(=O)N[C@@H](CCCCN)C(=O)N[C@@H](CC(C)C)C(=O)N[C@@H](CCCCN)C(=O)N[C@@H](CO)C(=O)N[C@@H](CO)C(=O)N[C@@H](C)C(=O)N[C@@H](Cc1ccc(O)cc1)C(N)=O)C(C)C)[C@@H](C)CC)[C@@H](C)CC	checkerboard	–	unit not given, added: rifampicin	lower means synergy	FICI	0.16
C[C@@H](O)[C@H]1C(=O)N2C(C(=O)O)=C(S[C@@H]3CN[C@H](C(=O)N(C)C)C3)[C@H](C)[C@H]12	–	neutropenic rat, lung infection	intravenous, 15 mg/kg every 12 h, first study	–	log10 CFU difference	-0.14 and -0.19 and -0.47
CC[C@H](C)[C@H](NC(=O)[C@H](CCCNC(=N)N)NC(=O)[C@H](CCCNC(=N)N)NC(=O)[C@H](CCCNC(=N)N)NC(=O)[C@H](CCCNC(=N)N)NC(=O)[C@H](CCCNC(=N)N)NC(=O)[C@@H](N)CCCNC(=N)N)C(=O)N[C@@H](CO)C(=O)N[C@@H](Cc1ccccc1)C(=O)N[C@@H](CC(C)C)C(=O)NCC(=O)N[C@@H](CO)C(=O)N[C@@H](CCCCN)C(=O)N[C@@H](CCCCN)C(=O)N[C@@H](CCCCN)C(=O)N[C@@H](CCCCN)C(=O)N[C@@H](CCCCN)C(=O)N[C@@H](CC(C)C)C(=O)N[C@@H](CC(C)C)C(=O)N[C@@H](CCCCN)C(=O)N[C@@H](CCCNC(=N)N)C(N)=O	checkerboard	–	unit not given, added: rifampicin	lower means synergy	FICI	0.13
CC(C)[C@@H]1NC(=O)[C@H](C)OC(=O)[C@@H](C(C)C)NC(=O)[C@@H](C(C)C)OC(=O)[C@H](C(C)C)NC(=O)[C@H](C)OC(=O)[C@@H](C(C)C)NC(=O)[C@@H](C(C)C)OC(=O)[C@H](C(C)C)NC(=O)[C@H](C)OC(=O)[C@@H](C(C)C)NC(=O)[C@@H](C(C)C)OC1=O	checkerboard	tetracycline-resistant	20 µM, added: tetracycline	–	FIC index	1
